# Assay results of several laboratories.
# Compare with care: the assays were run in different laboratories. ± gives the spread as reported.
Compound,assay,test system,conditions,half-life [h]
CC(=O)O[C@H]1C(=O)[C@@]2(C)[C@H]([C@H](OC(=O)c3ccccc3)[C@]3(O)C[C@H](OC(=O)[C@H](OC(=O)OCc4cc(P(=O)(O)O)ccc4OP(=O)(O)O)[C@@H](NC(=O)c4ccccc4)c4ccccc4)C(C)=C1C3(C)C)[C@]1(OC(C)=O)CO[C@@H]1C[C@@H]2O,,HBSS,"10 µM, 2 h incubation, pH 6.5",> 2
OCc1ccc(-c2nn(Cc3ccccc3)c3ccccc23)o1,,mouse liver microsomes,added: NADH,0.0467
CC[C@H](C)[C@H](NC(=O)[C@@H](NC(=O)[C@@H](NC(=O)[C@@H](NC(=O)[C@@H]1CCCN1C(=O)[C@H](Cc1c[nH]cn1)NC(=O)[C@@H]1CCCN1C(=O)CN)C(C)(C)C)[C@@H](C)CC)C(C)(C)C)C(=O)N[C@H](C(=O)NCC(=O)N1[C@H](C(=O)N[C@@H](Cc2c[nH]cn2)C(=O)N[C@@H](CCC(=O)O)C(=O)N[C@@H](CCC(=O)O)C(N)=O)CSC1(C)C)[C@@H](C)O,,human serum 25%,"5 µM, 37 °C",~6
Cc1ccc(NC(=O)c2ccc(CN3CCN(C)CC3)cc2)cc1Nc1nccc(-c2cncc(-c3oncc3C)c2)n1,,"Parkinson's disease patients, plasma","oral, 100 mg/day, 7 days, steady state",24.6 ± 4.7
CCCCCCCCCCCCCCCC(=O)N[C@@H](CCC(=O)NCCCC[C@@H]1NC(=O)[C@H]([C@@H](C)CC)NC(=O)[C@@H](NC(=O)[C@@H]2CCCN2C(=O)[C@H](Cc2ccccc2)NC(=O)[C@H](Cc2c[nH]cn2)NC(=O)[C@@H](NC(=O)[C@H](CC(=O)O)NC(=O)CC(C)C)[C@@H](C)O)CSSC[C@@H](C(=O)N[C@@H](CCCCN)C(N)=O)NC(=O)CNC(=O)[C@H](CCCCN)NC(=O)[C@H](CO)NC(=O)[C@H](CCCNC(=N)N)NC(=O)[C@@H]2CCCN2C(=O)[C@H](CCC(=O)O)NC(=O)[C@H](Cc2ccccc2)NC1=O)C(=O)O,,"healthy volunteers, plasma","subcutaneous, 30 mg single, lyophilised formulation",26.6 ± 6.39
CC1=NN(/C(=N/c2nnc(C)s2)Nc2ccc(C)c(C)c2)C(c2cc(F)c(F)c(F)c2)S1 (stereo not drawn),plasma stability,human plasma,,0.73
O=c1c2ccccc2sn1-c1ccc(F)cc1,,mouse liver microsomes,added: NADPH,< 1
COC(=O)[C@H](N)CSN=O,,PBS,"10 µM, pH 6.99, room temperature, dark",0.757 ± 0.085
Ic1ncco1,,PBS with 5% acetonitrile,"250 µM, pH 7.4, no glutathione",60
Cc1noc(C)c1-c1ccc2nc(-c3cnn(CC(C)(C)O)c3)nc(N3CCOC[C@@H]3c3ccccc3)c2c1,,human liver microsomes,,0.55
Cc1ccc(OCCN)cc1C(=O)N[C@H](C)c1cccc(-c2ccsc2)c1,,mouse liver microsomes,1 µM,> 0.833
CC(C)C(=O)Nc1ccc([N+](=O)[O-])c(C(F)(F)F)c1,substrate depletion,phenobarbital/β-naphthoflavone-induced rat liver microsomes,"1 µM, pH 7.4, 37 °C, added: NADPH",0.0317
CCCCCN(C)CCC(O)(P(=O)(O)O)P(=O)(O)OP(=O)(O)OC[C@H]1O[C@@H](n2ccc(N)nc2=O)C(F)(F)[C@@H]1O (stereo partly drawn),hydrolysis,HEPES buffer,"pH 6.2, 37 °C",6.4
CCOc1c([C@H](C)n2nc(C)c3c(N)ncnc32)cc(Cl)c(F)c1[C@@H]1CNC(=O)C1,,rat liver microsomes,"0.5 µM, pH 7.4, 37 °C, added: NADPH 1 mM",9.52
CC[C@H](C)C(=O)O[C@H]1C[C@@H](C)C=C2C=C[C@H](C)[C@H](CC[C@@H]3C[C@@H](O)CC(=O)O3)[C@H]21,,Beagle dog whole blood,5 µM,2.71
CCCCCCCCCC(=O)N[C@@H](Cc1c[nH]c2ccccc12)C(=O)N[C@H](CC(N)=O)C(=O)N[C@@H](CC(=O)O)C(=O)N[C@@H]1C(=O)NCC(=O)N[C@@H](CCCN)C(=O)N[C@@H](CC(=O)O)C(=O)N[C@H](C)C(=O)N[C@@H](CC(=O)O)C(=O)NCC(=O)N[C@H](CO)C(=O)N[C@@H]([C@H](C)CC(=O)O)C(=O)N[C@@H](CC(=O)c2ccccc2N)C(=O)O[C@@H]1C,,human plasma,"1 µM, up to 240 min, pH 7.4, 37 °C",> 4
O=C(ON1C(=O)CCC1=O)c1cc(C(F)(F)F)cc(C(F)(F)F)c1,HPLC-MS,BBS buffer,pH 10.2,< 0.0167
N[C@@H](CC(=O)O)C(=O)OC(C(=O)O)c1ccccc1[N+](=O)[O-].O=C(O)C(F)(F)F (mixture of isomers),"hydrolysis, 1H NMR","aqueous citrate-ammonium sulfate, 12.5% DMSO-d6","pH 4.2, room temperature, dark, isomer B",29 ± 2
C[C@H](NC(=O)/C(C#N)=C/c1cccc(Br)n1)c1ccccc1,LC-MS/MS,"patients, plasma","oral, 4 mg/kg, cycle 1 day 8",5
O=c1c2cc(Cl)ccc2[nH]c(=S)n1Cc1cccnc1,plasma stability,human plasma,,> 6.22
OC[C@H]1O[C@@H](c2cc(Cc3ccc(C4CC4)cc3)c(Cl)c3c2CCO3)[C@H](O)[C@@H](O)[C@@H]1O,,"healthy Korean adults, fasted, plasma","oral, 0.3 mg single dose, separate tablets, added: co-administered drug 50 mg",12.6 ± 4.04
N#Cc1ccc(Nc2nc(N)cc(Oc3c(F)cc(-c4ccc(C#N)cc4)cc3F)n2)cc1,,human liver microsomes,1 µM,1.24
Cc1nc2ccc(OCc3ccc(C(F)(F)F)cc3)cc2[nH]1,,human liver S9,"1 µM, pH 7.4",3.73
CN(C)CCCCC(=O)Nc1ccc(NC(=S)NC(=O)c2ccc(C(C)(C)C)cc2)cc1,,male human serum,"150 µM, 37 °C",0.8 ± 0.5
C[C@@H]1CCC[C@H](n2cnc(-c3cc(Cl)ccc3-n3cc(Cl)nn3)cc2=O)c2cc(ccn2)-c2c(cnn2C(F)F)NC1=O,,rabbit,,2.5 ± 0.2
C[C@H]1CN(C(=O)CC#N)[C@]12CCN(c1ncnc3[nH]ccc13)C2,,"healthy Japanese males, plasma","oral, 25 mg single dose",3.8
C[C@@H](O)[C@H](NC(=O)[C@H](Cc1ccc(O)cc1)NC(=O)[C@H](Cc1ccc(O)cc1)NC(=O)[C@H](CO)NC(=O)[C@H](CCCNC(=N)N)NC(=O)[C@H](Cc1c[nH]cn1)NC(=O)[C@@H](N)Cc1c[nH]c2ccccc12)C(=O)N[C@@H](Cc1c[nH]c2ccccc12)C(=O)N[C@@H](CC(N)=O)C(N)=O,,human serum 50%,"20 µM, 37 °C",0.25 to 0.333
CCOC(=O)c1ccc(N)cc1,metabolic stability,human liver microsomes,,0.333
CCCCC[C@H](O)CC[C@@H]1[C@H]2Cc3cccc(OCC(=O)O)c3C[C@H]2C[C@H]1O,LC-MS/MS,"Japanese PAH patients, male, plasma","inhaled, 54 µg, geometric mean",0.67
O=C1CC2(CCCC2)CC(=O)N1CCCCN1CCN(c2ncccn2)CC1,substrate depletion,phenobarbital/β-naphthoflavone-induced rat liver microsomes,"1 µM, pH 7.4, 37 °C, added: NADPH",0.055
COCCOc1cnc2ccn([C@H](C)c3nnc4c(F)cc(-c5cnn(C)c5)cn34)c(=O)c2c1,,"patients, plasma","oral, 400 mg once daily, day 1",5.9
Oc1ccc([C@@H](O)c2cc(-c3ncnc4cc(N5CCOCC5)ccc34)c(F)cc2Cl)nn1,geometric mean,"healthy volunteers, plasma","oral, 100 mg, fasted tablet",3.8
O=C(Nc1ccc2c(c1)OCO2)C(F)F,,PBS with 10% acetonitrile,"250 µM, pH 7.4, added: GSH 5 mM",≥ 240

# Excerpt of the above:
Compound,assay,test system,conditions,half-life [h]
COCCOc1cnc2ccn([C@H](C)c3nnc4c(F)cc(-c5cnn(C)c5)cn34)c(=O)c2c1,,"patients, plasma","oral, 400 mg once daily, day 1",5.9
OCc1ccc(-c2nn(Cc3ccccc3)c3ccccc23)o1,,mouse liver microsomes,added: NADH,0.0467
COC(=O)[C@H](N)CSN=O,,PBS,"10 µM, pH 6.99, room temperature, dark",0.757 ± 0.085
CN(C)CCCCC(=O)Nc1ccc(NC(=S)NC(=O)c2ccc(C(C)(C)C)cc2)cc1,,male human serum,"150 µM, 37 °C",0.8 ± 0.5
